Results from different studies.
Each line is one published result; not all experiments were run side by side. Several values in a cell are separate wells, animals, samples, runs or records. ± gives the spread as reported.

CN(C(=O)n1cnc(-c2ccc[n+]([O-])c2)c1)[C@H]1CC[C@H](O)CC1 — concentration (Wistar rat, medulla oblongata; oral, 10 mg/kg/day of BIA 10-2474, 72 h, repeated 5 days): 8.8 ± 6.8 ng/g
Cc1noc(C)c1-c1cc(C(O)(c2ccccn2)c2ccccn2)c2nc(C3CC3)[nH]c2c1 — AUCtau (human male, fasted, plasma; oral, 3 mg once daily, cycle 1 day 8): 3760 ng·h/mL
Cc1c2oc3c(C)ccc(C(=O)N[C@@H]4C(=O)N[C@H](C(C)C)C(=O)N5CCC[C@H]5C(=O)N(C)CC(=O)N(C)[C@@H](C(C)C)C(=O)O[C@@H]4C)c3nc-2c(C(=O)N[C@@H]2C(=O)N[C@H](C(C)C)C(=O)N3CCC[C@H]3C(=O)N(C)CC(=O)N(C)[C@@H](C(C)C)C(=O)O[C@@H]2C)c(N)c1=O — median plasma concentration (LC-MS; children with cancer, plasma; dose not given, 2 h): 4.8 µg/L
CC[C@H](C)C(=O)O[C@H]1C[C@H](O)C=C2C=C[C@H](C)[C@H](CC[C@@H](O)C[C@@H](O)CC(=O)O)[C@H]21 — apoptotic cells (COS-7; 10 µM, 24 h, 0.1% DMSO, unit not given; reference: vehicle control): 0.76 ± 0.16
O=C(O)c1cc(O)ccc1O — plasma concentration (human plasma; median, both sexes): 4.29 µM
CC(C)[C@H](N)C(=O)NCCCS(=O)(=O)O — AUC(0-24) (human both sexes, plasma; oral, 256.5 mg once daily, day 1, fasted capsule): 9840 ng·h/mL
COc1cc(O)c2c(c1)C(=O)c1cc(C)cc(O)c1C2=O — cell viability (HepaRG co-cultured with HK-2; MTT; 16.67 µM, 24 h; reference: untreated control): 116 ± 14.8%
CNCc1ccc(-c2[nH]c3cc(F)cc4c3c2CCNC4=O)cc1 — abdominal pain incidence (patients; oral, 600 mg twice daily, grade 1): 3.8%
CC[C@H](C)[C@H](NC(=O)[C@H](Cc1ccccc1)NC(=O)[C@H](CC(=O)O)NC(=O)[C@H](CCCNC(=N)N)NC(=O)[C@H](C)NC(=O)[C@H](C)NC(=O)[C@H](CC(C)C)NC(=O)[C@H](CC(N)=O)NC(=O)[C@H](CC(=O)O)NC(=O)[C@H](CC(C)C)NC(=O)[C@@H](NC(=O)[C@@H](NC(=O)[C@H](CC(N)=O)NC(=O)[C@H](CCSC)NC(=O)[C@H](CCC(=O)O)NC(=O)[C@H](CC(=O)O)NC(=O)[C@H](CO)NC(=O)[C@H](Cc1ccccc1)NC(=O)[C@H](CO)NC(=O)CNC(=O)[C@H](CC(=O)O)NC(=O)CNC(=O)[C@@H](N)Cc1c[nH]cn1)[C@@H](C)O)[C@@H](C)CC)C(=O)N[C@@H](CC(N)=O)C(=O)N[C@@H](Cc1c[nH]c2ccccc12)C(=O)N[C@@H](CC(C)C)C(=O)N[C@H](C(=O)N[C@@H](CCC(N)=O)C(=O)N[C@H](C(=O)N[C@@H](CCCCN)C(=O)N[C@H](C(=O)N[C@H](C(=O)N[C@@H](CC(=O)O)C(=O)O)[C@@H](C)O)[C@@H](C)CC)[C@@H](C)O)[C@@H](C)CC — typical absorption rate constant (population PK sensitivity analysis; human; fixed allometric exponent): 0.331 h⁻¹
OCc1nc2ccc(NCc3ccc(C(F)(F)F)cc3)cc2[nH]1 — tissue/plasma ratio (male Balb/c mice, liver; oral, 10 mg/kg, 6 h; reference: tissue over plasma): 8.6 ± 0.6
C[C@@H](Oc1cc(-c2cnn(C3CCNCC3)c2)cnc1N)c1c(Cl)ccc(F)c1Cl — AUCtau, dose-normalized (human patients, plasma; oral, dose not given, cycle 2 day 1, mean, together with: avelumab): 13 ng·h/mL/mg
COc1cc2c(cc1OC)C(=O)C(CC1CCN(Cc3ccccc3)CC1)C2 (centres unmarked) — VAS score change (Bond-Lader VAS, measured: Mood; human; dose not given; reference: placebo, direction not given): 2.66 mm
N#Cc1ccc2c(c1)[C@H]1CCCN(C(=O)c3ccc4[nH]cnc4c3)[C@H]1C2 — androstenedione level (human, male; 20 mg, day 7): 7.2 nmol/L
Cc1onc(-c2ccccc2)c1-c1ccc(S(N)(=O)=O)cc1 — apoptosis (COS-7; 100 µM, 24 h, 0.1% DMSO, unit not given; reference: control): 1.05 ± 0.28
CCCCOC(=O)N1CCN(C(=O)[C@H](CP(=O)(O)O)NC(=O)c2cc(N3CC[C@H](OC)C3)nc(-c3ccccc3)n2)CC1 — change from baseline (measured: creatinine; human, serum; 8 mg, 24 h post-dose): 0.8 ± 9.4 µmol/L
COc1ccc2c3c([nH]c2c1)[C@H](CC(C)C)N1C(=O)[C@H](CC(=O)NC(C)C)NC(=O)[C@@H]1C3 — serum concentration (wild-type mouse, male, serum; oral, 100 mg/kg, 0.5 h): 43.3 µM and 32.9 µM and 24.6 µM
CCc1cc(C(=O)NC)c2nccc(N3CCc4c(cc(Cn5ccnc5)cc4-c4cn(C)nc4C(F)(F)F)C3=O)c2c1 — blood HGB (Sprague Dawley rats; oral, 50 mg/kg once daily, 7 days): 136 ± 2.83 g/L
Cn1cc(Nc2nccc(-c3ccc4c(c3)CN(C3COC3)CC[C@H]4NC(=O)c3cn(C(C)(C)C)nn3)n2)cn1 — percent change from baseline (measured: Granulocytes count; human, clinical trial, whole blood; 50 mg twice daily, follow-up): 22.2%
C[C@@H](N)C1CCN(S(=O)(=O)c2cccc3cnccc23)CC1 — duration of quantifiable plasma levels (healthy volunteers, fasted, plasma; oral, 150 mg): ≤ 8 h
FC(F)(F)c1ccc(CNc2ccc(Cc3c[nH]c4ncc(Cl)cc34)cn2)cn1 — patients with treatment-related adverse event (measured: alanine aminotransferase increased; patients with TGCT; oral, 1000 mg/day, grade 3 or higher): 10%
CC(C)C[C@H](NC(=O)[C@@H](Cc1c[nH]c2ccccc12)NC(=O)[C@H](Cc1ccc(O)cc1)NC(=O)[C@H](CO)NC(=O)[C@H](Cc1c[nH]c2ccccc12)NC(=O)[C@H](Cc1c[nH]cn1)NC(=O)[C@@H]1CCC(=O)N1)C(=O)N[C@@H](CCCNC(=N)N)C(=O)N1CCC[C@H]1C(=O)NCC(N)=O — plasma concentration (Chinese girls, precocious puberty, plasma; intramuscular, 22.5 mg, 2160 h, month 3, mean): 0.0552 ng/mL
Cc1ccc([C@@H]2O[C@H](CO)[C@@H](O)[C@H](O)[C@H]2O)cc1Cc1ccc(-c2ccc(F)cc2)s1 — urinary potassium excretion change (Japanese type 2 diabetes patients; 400 mg, day 17, 24 h urine collection; reference: baseline): -0.044 mEq
CC[C@H](C)[C@@H]1NC(=O)[C@H](CCCNC(=N)N)NC(=O)[C@H](CC(=O)O)NC(=O)[C@H](CC(C)C)NC(=O)[C@H](CCCCN)NC(=O)[C@H](CC(C)C)NC(=O)CNC(=O)[C@H](Cc2ccccc2)NC(=O)[C@@H](NC(=O)CNC(=O)[C@H](CCCCN)NC(=O)[C@H](CO)NC(=O)[C@H](CC(C)C)NC(=O)CNC(=O)[C@H](CCCCN)NC(=O)[C@H](CCCCN)NC(=O)[C@H](CC(N)=O)NC(=O)[C@H](C)NC(=O)CNC(=O)[C@H](CCCCN)NC(=O)[C@H](Cc2ccc(O)cc2)NC(=O)[C@H](CCCCN)NC(=O)[C@H](CCCNC(=N)N)NC(=O)[C@H](C)NC(=O)[C@H](CC(N)=O)NC(=O)[C@@H]2CCCN2C(=O)[C@H](Cc2c[nH]cn2)NC(=O)[C@H](CCC(=O)O)NC(=O)[C@H](CCC(N)=O)NC(=O)CNC(=O)[C@@H]2CCCN2)CSSC[C@@H](C(=O)O)NC(=O)CNC(=O)[C@H](CC(C)C)NC(=O)CNC(=O)[C@H](CO)NC(=O)[C@H](CCSC)NC(=O)[C@H](CO)NC(=O)CNC1=O — AUC(0-60 min) (human, plasma; dose not given): 255 ng·h/mL
COc1cc(/C=C/C(=O)O)cc(OC)c1O — plasma concentration (human plasma; median): 0.188 µM
CCC[C@@H]1C[C@@H](C(=O)N[C@@H]([C@H]2O[C@H](SC)[C@H](O)[C@@H](O)[C@H]2O)[C@@H](C)O)N(C)C1 — amount permeated (starch gel membrane permeability; Gram-negative envelope surrogate; 200 µM, 60 min, pH 7.4): 2.87 nmol
NC(=O)N1c2ccccc2C=Cc2ccccc21 — GGT (human, serum; concentration not given): ≤ 133 U/L
O=S(=O)(O)Oc1cc(CCO)ccc1O — plasma concentration (human plasma; mean): 0.282 µM
O=C(Nc1nc2cccc(-c3ccc(CN4CCS(=O)(=O)CC4)cc3)n2n1)C1CC1 — patients with rheumatoid arthritis (rheumatoid arthritis patients; oral, 100 mg twice daily, 4 weeks, regardless of relatedness): 0%
COc1ccc([C@@H]2CC(=O)c3c(O)cc(O)cc3O2)cc1O — plasma concentration (human plasma; median, both sexes): 0.168 µM
NC1(C(=O)N[C@@H](CCO)c2ccc(Cl)cc2)CCN(c2nc[nH]c3nccc2-3)CC1 — incidence of Amnesia (metastatic CRPC patients; 320 mg b.i.d., any grade, treatment-related, together with: enzalutamide 160 mg daily): 0%
Cc1cc(-c2nccc3c2ccn3CC(=O)Nc2ccc(-c3cnccn3)cn2)ccn1 — subjects with gastrointestinal disorders TEAEs (human; SAD part, single 7 mg dose): 0%
CCN1/C(=C/C(C)=O)Sc2ccc(F)cc21 — mean blood pressure (cynomolgus monkey; oral, 30 mg/kg, 4 h post-dose): 87 ± 5 mmHg
O=C(COc1ccc(Cl)cc1)NC12CC(c3nnc([C@H]4C[C@@H](OC(F)(F)F)C4)o3)(C1)C2 — postural dizziness participants (human both sexes; oral, 100 mg once daily, 14 days): 14.3%
[H]/N=C(/N)N[C@H]1[C@H](O)[C@@H](O)[C@H](O[C@@H]2O[C@@H](C)[C@](O)(C=O)[C@H]2O[C@@H]2O[C@@H](CO)[C@H](O)[C@@H](O)[C@@H]2NC)[C@@H](N/C(N)=N\[H])[C@@H]1O — amount permeated (starch gel membrane permeability; Gram-negative envelope surrogate; 200 µM, 30 min, pH 7.4): 0.7 nmol
Cc1cc(Nc2cc3ncccc3c(N[C@@H]3C[C@H]4CC[C@@H](C3)N4CCC#N)n2)n[nH]1 — sneezing incidence (healthy human subjects; oral, 10 mg, 14 days, multiple ascending dose): 0%
CCCn1cc(C)c2c(=O)[nH]c(-c3cc(S(=O)(=O)N4CCN(CC)CC4)ccc3OCC)nc21 — number of treatment-related AEs (human; concentration not given): 40
COc1ncc(-c2nc3c(n2C(C)C)[C@H](c2ccc(Cl)cc2)N(c2cc(Cl)cn(C)c2=O)C3=O)c(OC)n1 — AUC(0-last) (LC-MS/MS; human, plasma; oral, 1 mg, cycle 1 day 8, low-dose arm): 109 ng·h/mL
CCCCOc1nc(N)c2c(n1)N(Cc1cccc(CN3CCCC3)c1)CC(=O)N2 — drug-related TEAE incidence (measured: Photophobia; human; oral, 2 mg): 0%
C[C@@H]1COCCN1c1cc(C2([S@](C)(=N)=O)CC2)nc(-c2cc[nH]c3nccc2-3)n1 — Diarrhea incidence (Japanese advanced solid tumour patients; oral, 160 mg twice daily, any grade): 0%
CNC(=O)c1ccc(-c2cnc3ncc(Cc4ccc5ncccc5c4)n3n2)cc1F — patients with adverse event (measured: Cough, all grades; hepatocellular carcinoma patients; oral, 600 mg twice daily, expansion cohort, any causality): 0%
N[C@@H]1c2ccccc2OC12CCN(c1cnc3c(N4CCCc5ncccc54)n[nH]c3n1)CC2 — AUC(0-tau) (advanced metastatic solid tumour patients, plasma; oral, 10 mg once daily, cycle 1 day 1, geometric mean): 1170 ng·h/mL
COc1cc(Nc2ncc3c(n2)-c2ccc(Cl)cc2C(c2c(F)cccc2OC)=NC3)ccc1C(=O)O — patients with nasal congestion (cancer patients; oral, dose not given, all grades any attribution, together with: pembrolizumab): 13%
NC[C@H]1O[C@H](O[C@H]2[C@H](O)[C@@H](O[C@H]3O[C@H](CO)[C@@H](O)[C@H](N)[C@H]3O)[C@H](N)C[C@@H]2N)[C@H](N)C[C@@H]1O — amount permeated (starch gel membrane permeability; Gram-negative envelope surrogate; 200 µM, 10 min, pH 7.4): 0.18 nmol
O=C(O)C=Cc1ccc(OS(=O)(=O)O)c(O)c1 — plasma concentration (human plasma; mean): 0.114 µM
C[C@H]1[C@H](NC(=O)/C(=N\OC(C)(C)C(=O)O)c2csc(N)n2)C(=O)N1S(=O)(=O)O — amount permeated (starch gel membrane permeability; Gram-negative envelope surrogate; 200 µM, 10 min, pH 7.4): 1.16 nmol
O=C(N[C@H](Cc1c[nH]c2ccccc12)C(=O)Nc1ccncc1)c1ccc(-c2ccc(F)c(Cl)c2)cc1F — concentration (Swiss Webster mouse, female, heart; oral, 50 mg/kg, 2 h, 20% HPβCD vehicle): 4.08 µM
O=Cc1cc2c(cc1F)C(=O)N(C1CCC(=O)NC1=O)C2 (centres unmarked) — plasma concentration (cynomolgus monkey, male; oral, 0.3 mg/kg parent drug, 0.5 h): 0.27 ng/mL
